Assay results from different studies.
Every numbered part comes from another study and shows a few of its results, in no order. Changes are numbered by the printed parent chain.

Series 1 — technique: EMSA with sequencing; molecule type: double-stranded DNA, one strand shown; medium: in vitro; tested at: 10 and 20 nM; relative to: negative control set to 0; reading: higher = stronger binding
Target: Hepatocyte nuclear factor 3-alpha (Foxa1, Mus musculus, UniProt P35582, residues 1-468, full length assumed)
Setting: whole designed probe, mean of two concentrations, ends assumed
All sequences stand within: GTGAGCGGTGCCCATTGATGGGGAAC … TTTCACTGGGATCGTGGGGAC
Construct (chain): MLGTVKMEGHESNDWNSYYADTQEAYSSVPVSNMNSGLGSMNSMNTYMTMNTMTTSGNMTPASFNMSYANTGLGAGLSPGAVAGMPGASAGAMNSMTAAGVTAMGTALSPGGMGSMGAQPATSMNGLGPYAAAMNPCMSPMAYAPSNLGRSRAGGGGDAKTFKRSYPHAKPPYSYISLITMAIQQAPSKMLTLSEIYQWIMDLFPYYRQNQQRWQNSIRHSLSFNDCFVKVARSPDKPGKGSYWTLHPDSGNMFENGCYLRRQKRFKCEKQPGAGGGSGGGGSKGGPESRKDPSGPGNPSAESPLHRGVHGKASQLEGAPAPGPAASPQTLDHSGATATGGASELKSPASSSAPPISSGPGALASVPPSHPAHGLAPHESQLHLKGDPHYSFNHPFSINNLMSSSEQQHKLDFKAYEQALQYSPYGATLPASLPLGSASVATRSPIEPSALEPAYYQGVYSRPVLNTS
`CTTGATTTATGGCTAGAATATGACATACATGAGCATTTGCCTTTCCTAAGATAATTCACAAGCATCCCCCCAAAAAATATAGATAGGGATCAAAGTAATCTAACAAACAAACAAAAACAGAAGCAATTGAATTTGACCTTATAATGGTCATAAAGTGATGATGGACATGACCAAAGCCACAACATCAGTAGAA` — result for “normalised bound fraction”: 0.232 ratio.
For `AAAAATGCTCATCTCTGAATGGTGGGATTATTGTTTCTATATTCTTCTTATACATGCCTGTATTTTTTTAAACAATGAATGTTTATTACTCTGTGTTTACAAAAAAGGGAGAGTTTAAAGCCCCTTACCCCAAAGTGAGGCAGGAATCAAGTCAGGGGCTTAAAGTGGCGAGCCCTGGGCTCTTTCCTGGGCT`, “normalised bound fraction” read 0.118 ratio.
`GTTTTTGTAACTTGGTACTTAAAGACTCATGTTCAACATACTTGTGCTATATACTAAATAGCTTATCATTATAAAATGTACTTGTATGTACTTGTTTACTTTTTCTTATCTGATAATAGTATTGAGATTCTTTCTTCCTTTCATTTATTTTTTTAAGCCTTCACTTACATGGAGTGTCCACTTATTGTTATGT`: “normalised bound fraction” 0.415 ratio.
`ATCTTCCCCCTCTTCCTTGCCCCACCAGCTCACCTACGGGGGTTATTTGCACAAAGGAAAATAAATAAAGCCGGCATTCGTTAACGCAGTTCACGCGCATACTGCTGTTTGCTCTGCATGAATCATGGTCCTTACGCGAGGCGTGGCTCCGGGAGAGCAAAGCACCGTGTCAGGCGCATGATCCGGGGTGGCC`: “normalised bound fraction” 0.388 ratio.
For `CCACAGCTTCAATCATTTTCAGAGCCTGAGTTAGTCTACAAATGGGTTGAGAACACGTTTTTTTTTCACTCAGGCGAAAAGTCATTTCCAAAGTAATCTAAGACTTTAAACTGGGAATTAAGGGCAAGATCAGGGATGAGGAAGTTAATACCATATTGAAAAGTTCTAAGGAAGAAGGCCATGTAACGAGATA`, “normalised bound fraction” read -0.0862 ratio.

Series 2 — technique: DHFR PCA, deep sequencing; medium: yeast; added: (+)-ABA 0.11 µM; relative to: wild-type fitted maximum; reading: higher = stronger binding
Target: ABI1, truncated, D143A, DHFR fusion (Arabidopsis thaliana)
Setting: methotrexate growth selection, single substitutions
Starting sequence: PYL1, truncated, DHFR fusion (Arabidopsis thaliana); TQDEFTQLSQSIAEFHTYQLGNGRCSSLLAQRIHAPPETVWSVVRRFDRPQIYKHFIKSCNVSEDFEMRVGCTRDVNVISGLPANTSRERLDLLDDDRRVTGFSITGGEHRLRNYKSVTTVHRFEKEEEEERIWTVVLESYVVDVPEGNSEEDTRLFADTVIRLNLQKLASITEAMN; partner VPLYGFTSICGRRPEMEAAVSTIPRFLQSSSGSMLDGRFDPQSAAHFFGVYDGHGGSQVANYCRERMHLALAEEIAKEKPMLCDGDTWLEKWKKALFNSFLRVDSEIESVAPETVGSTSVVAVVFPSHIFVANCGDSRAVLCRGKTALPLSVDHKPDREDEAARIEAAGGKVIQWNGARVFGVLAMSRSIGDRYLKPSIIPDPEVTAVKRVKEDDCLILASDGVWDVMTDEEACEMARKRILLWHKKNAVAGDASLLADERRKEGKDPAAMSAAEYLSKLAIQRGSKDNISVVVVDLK
For `A175T`, “relative binding score” read 23.5%.
Under “relative binding score”, `P50E` is recorded as 3.33%.
For `R111K`, “relative binding score” read 11.6%.
For `M68E`, “relative binding score” read 0.482%.
For `S104I`, “relative binding score” read 3.72%.
Under “relative binding score”, `V161C` is recorded as 53.8%.
`Y18Q` — result for “relative binding score”: -1.39%.
For `V76D`, “relative binding score” read 2.23%.

Series 3 — technique: aptamer microarray, sandwich; molecule type: DNA with 2'F-ANA; medium: in vitro; tested at: 200 nM; added: Cy3 exosite-II aptamer, 400 nM; reading: higher = stronger binding; oligonucleotide: GGTTGGTGTGGTTGG
Target: Prothrombin, mature alpha-thrombin (F2, Homo sapiens, UniProt P00734)
Setting: whole 15-mer aptamer, many near background
`2'F-ANA at 5 6 7 8 10 12 13` — result for “mean fluorescence intensity”: 53.5 a.u.
`2'F-ANA at 4 5 8 14`: “mean fluorescence intensity” 49.9 a.u.
`2'F-ANA at 1 4 8 13 14 15` — result for “mean fluorescence intensity”: 53.1 a.u.
For `2'F-ANA at 1 4 6 10 11 12 13`, “mean fluorescence intensity” read 52.8 a.u.
Under “mean fluorescence intensity”, `2'F-ANA at 1 4 5 7 8 14 15` is recorded as 98.1 a.u.
`2'F-ANA at 2 3 5 7 8 9 11 13 15` — result for “mean fluorescence intensity”: 77.9 a.u.
`2'F-ANA at 1 2 3 5 8 9 10 11 12 14 15`: “mean fluorescence intensity” 51.7 a.u.
`2'F-ANA at 1 2 3 4 6 7 10 14` — result for “mean fluorescence intensity”: 46.5 a.u.
For `2'F-ANA at 3 4 6 9 10 12 13`, “mean fluorescence intensity” read 247 a.u.
`2'F-ANA at 2 4 5 7 8 9 10 14`: “mean fluorescence intensity” 65.1 a.u.
For `2'F-ANA at 1 4 5 7 9 10 13 14 15`, “mean fluorescence intensity” read 48.8 a.u.
Under “mean fluorescence intensity”, `2'F-ANA at 1 2 4 5 10 11 12 13 14 15` is recorded as 45 a.u.
`2'F-ANA at 2 6 7 9 10 11` — result for “mean fluorescence intensity”: 115 a.u.
`2'F-ANA at 2 3 4 5 7 8 10 12` — result for “mean fluorescence intensity”: 64.3 a.u.
`2'F-ANA at 1 3 4 5 6 8 10 12 13` — result for “mean fluorescence intensity”: 47.2 a.u.
`2'F-ANA at 1 2 6 7 9 10` — result for “mean fluorescence intensity”: 53.1 a.u.

Series 4 — technique: protein-binding microarray; molecule type: double-stranded DNA, one strand shown; medium: in vitro; tested at: 940 nM top; setting: 60-bp whole probe; added: salmon DNA 0.4 mg/ml; relative to: random background probes; reading: higher = stronger binding; all sequences stand within: GCCTAGCAC … GTCTTGATTCGCTTGACGCTGCTG
Target: Interferon regulatory factor 5, full length, phosphomimetic (IRF5, Homo sapiens, UniProt Q13568-2, residues 1-514, S451D/S453D/S456D/S462D)
`TCAACTAGGGCATTTAGAACTGTGCTA` — result for “fitted relative affinity”: -0.527 z-score.
Under “fitted relative affinity”, `TCAGGTCTCTAACTCAAACTGTGCTAG` is recorded as 0.0551 z-score.
Under “fitted relative affinity”, `GGACGAGCGACGGTGACACTGTGCTAG` is recorded as -0.718 z-score.
For `GACGGTTTCGACTTTCGGAACGTGCTA`, “fitted relative affinity” read 7.35 z-score.
Under “fitted relative affinity”, `TCATATTTGCAACATCCCACTGTGCTA` is recorded as 0.616 z-score.
Under “fitted relative affinity”, `GACGGTATGCTTTTCCTGACGTGCTAG` is recorded as -0.0431 z-score.
Under “fitted relative affinity”, `GACGGGTTCGACTATCGGGACGTGCTA` is recorded as -0.246 z-score.
`GACGATATCAGTTTCAAGACGTGCTAG` — result for “fitted relative affinity”: 1.07 z-score.
`GGGGATAAACTTAATGGATGGTGCTAG` — result for “fitted relative affinity”: -0.14 z-score.

Single results of other studies
For `PhoQ, residues 284 288 289 292 302 303 AQGLTV`, the fold induction was 23.5 (PhoP, residues 12 14 15 18 19 NQCAL (Escherichia coli, UniProt P23836); Sort-seq, item: YFP reporter; E. coli; PhoQ-PhoP variant library, added: 10 µM Mg2+; relative to: high Mg2+ state, higher = stronger signaling).

A few entries again (series 3):
`2'F-ANA at 5 6 7 8 10 12 13` — result for “mean fluorescence intensity”: 53.5 a.u.
`2'F-ANA at 2 3 4 5 7 8 10 12` — result for “mean fluorescence intensity”: 64.3 a.u.
`2'F-ANA at 1 3 4 5 6 8 10 12 13` — result for “mean fluorescence intensity”: 47.2 a.u.
